Experimental data of several laboratories.
± marks the error that the study gave. ≈ marks a conversion by molar mass, not a printed value.
Organism: Staphylococcus epidermidis

CCc1cc(=O)c2c(OCC(O)CNC(C)(C)C)c3ccoc3c(OC)c2o1 (stereo not shown) gave an MIC of over 256 µg/mL (broth microdilution; ATCC 35984; 19 h, 35 °C).
The MBC of Cc1cc(C)n(C(N)=S)n1.Cc1ccc(C(C)C)cc1.[Cl][Ru][Cl] is reported as 125 µg/mL (broth microdilution, agar subculture; ATCC 12228).
For CCc1cc(=O)c2c(OCC(O)CN3CCOCC3)c3ccoc3c(OC)c2o1 (stereo not shown), the MIC was over 256 µg/mL (broth microdilution; ATCC 35984; 19 h, 35 °C).
The MIC of CN[C@H](CC(C)C)C(=O)N[C@H]1C(=O)N[C@@H](CC(N)=O)C(=O)N[C@H]2C(=O)N[C@H]3C(=O)N[C@H](C(=O)N[C@H](C(=O)O)c4cc(O)cc(O)c4-c4cc3ccc4O)[C@H](O)c3ccc(c(Cl)c3)Oc3cc2cc(c3O[C@@H]2O[C@H](CO)[C@@H](O)[C@H](O)[C@H]2O[C@H]2C[C@](C)(N)[C@H](O)[C@H](C)O2)Oc2ccc(cc2Cl)[C@H]1O is reported as 8 µg/mL (≈ 5.52 µM) (BHI agar; 48 h).
NC(=S)n1nc(-c2ccccc2)cc1O has an MBC of 1000 µg/mL (≈ 4560 µM) (broth microdilution, agar subculture; ATCC 12228; 24 h).
For CCc1cc(=O)c2c(OCC3CO3)c3ccoc3c(OC)c2o1 (stereo not shown), the MIC was over 256 µg/mL (broth microdilution; ATCC 35984; 19 h, 35 °C).
O=C(O)CCCN1C(=O)C(=C2C(=O)N(Cc3ccc(Cl)cc3)c3ccccc32)SC1=S gave an IC50 of 15.7 µM (microbial growth; ATCC12228; 6 h).
Cc1ccc(C(C)C)cc1.Cc1ccc(C(C)C)cc1.[Cl][Ru][Cl].[Cl][Ru][Cl] gave an MBC of over 1000 µg/mL (broth microdilution, agar subculture; ATCC 12228).
CCOC(=O)c1c(N)csc1-c1cn(-c2ccccc2)nc1-c1ccc(C)cc1 gave an MIC of 0.124 ± 0.3 µg/mL (≈ 0.307 µM) (broth microdilution; clinical urinary isolate; compound gamma-irradiated 15 kGy).
O=C(O)CN1C(=O)C(=C2C(=O)N(Cc3ccccc3Cl)c3ccccc32)SC1=S gave an IC50 of 12 µM (microbial growth; ATCC12228; 6 h).

Repeated from above:
CCOC(=O)c1c(N)csc1-c1cn(-c2ccccc2)nc1-c1ccc(C)cc1 gave an MIC of 0.124 ± 0.3 µg/mL (≈ 0.307 µM) (broth microdilution; clinical urinary isolate; compound gamma-irradiated 15 kGy).
